Earlier results that unrelated publications cite.
Lines come from different studies, so protocols differ. Numbers after ± are the reported error. Converted amounts (≈) assume the structure as drawn.

With `CO/N=C1\CN(c2nc3c(cc2F)c(=O)c(C(=O)O)cn3C2CC2)CC1CN` (stereo not shown) the MIC90 was 0.06 µg/mL (≈ 0.154 µM) (Streptococcus pyogenes).
`Cc1ccc(C(=O)Nc2ccc(S(=O)(=O)O)c3cc(S(=O)(=O)O)cc(S(=O)(=O)O)c23)cc1NC(=O)c1cccc(NC(=O)Nc2cccc(C(=O)Nc3cc(C(=O)Nc4ccc(S(=O)(=O)O)c5cc(S(=O)(=O)O)cc(S(=O)(=O)O)c45)ccc3C)c2)c1` gave an IC50 of 76 ± 11 nM (Trypanosoma brucei rhodesiense; cell growth; IL1501).
`CN[C@H]1C(=O)N[C@@H]2Cc3ccc(cc3)Oc3cc4cc(c3O[C@@H]3O[C@H](C(=O)O)[C@@H](O)[C@H](O)[C@H]3NC(=O)CCCCCCCCC(C)C)Oc3ccc(cc3Cl)[C@@H](O)[C@@H]3NC(=O)[C@H](NC(=O)[C@@H]4NC(=O)[C@@H](NC2=O)c2cc(cc(O)c2Cl)Oc2cc1ccc2O)c1ccc(O)c(c1)-c1c(O[C@H]2O[C@H](CO)[C@@H](O)[C@H](O)[C@@H]2O)cc(O)cc1[C@@H](C(=O)NCCCN(C)C)NC3=O` gave an MIC90 of 0.06 µg/mL (≈ 0.033 µM) (Staphylococcus aureus; clinical isolates).
`FC(F)(F)c1cccc(CNC2CCN(CCc3ccccc3)CC2)c1` has an IC50 of 2700 nM (Trypanosoma brucei brucei; Squib 427).
`C[C@](C#N)(COc1cc(C#N)ccc1C(F)(F)F)NC(=O)c1ccc(SC(F)(F)F)cc1` gave an efficacy of ~100% (gastrointestinal nematodes; resistant to benzimidazoles, levamisole and macrocyclic lactones, sheep).
`Cc1ccc(C(=O)c2oc3ccc4c(C)cc(=O)oc4c3c2C)cc1` has an IC50 of > 32000 nM (Trypanosoma brucei rhodesiense; STIB 900).
`O=C(N[C@@H](Cn1ccnc1)c1ccc(Cl)cc1Cl)c1ccc(-c2nnc(-c3ccccc3)o2)cc1` has a cure rate of 100% (Trypanosoma cruzi; Tulahuen, mouse, Chagas disease model; dose not given).
For `OC(Cn1cncn1)(Cn1cncn1)c1ccc(F)cc1F`, the MIC50 was ≥ 160 µM (Trichophyton rubrum; azole-resistant).
`NCCCC(N)(C(=O)O)C(F)F` (stereo not shown) gave an IC50 of 16100 ± 2930 nM (Trypanosoma congolense; IL3000).
`COCCNC(=O)c1ccc(OC2CCN(Cc3ccc(F)c(F)c3)CC2)c(Cl)c1` gave an IC50 of 16100 nM (Trypanosoma brucei rhodesiense; STIB 900).
For `O=c1c2nc(Br)n([C@@H]3O[C@@H]4COP(=O)(O)O[C@H]4[C@H]3O)c2nc2[nH]c(-c3ccccc3)cn12`, “Km or Ki” read 73100 nM (PDE1C; cyclic nucleotide hydrolysis, substrate or inhibitor, isothermal titration calorimetry).
`CCC(C)c1c(O)ccc2c1CC[C@@H]1[C@@H]2CC[C@]2(C)C(=O)CC[C@@H]12` (stereo partly shown) gave an EC50 of 270 nM (HT-22; cell protection; together with: glutamate 20 mM).
With `CN(C)c1ccc(O)c2c1C[C@H]1C[C@H]3[C@H](N(C)C)C(O)=C(C(N)=O)C(=O)[C@@]3(O)C(O)=C1C2=O` the treatment duration was 4 week (Brugia malayi; Wolbachia depletion above 90%; SCID mouse; exposure equivalent to human 100 mg/day).
`CCCCCCCCCCCCCC#CC(=O)O` gave an active concentration of 21.4 to 56.8 µM (Gram-positive cocci; growth; incl. penicillin-resistant Staphylococcus aureus).
The ED50 of `CC(=O)O[C@H]1Cc2ccccc2N(C(N)=O)c2ccccc21` is reported as 15.9 mg/kg (psychomotor seizure protection; mice; 6 Hz 44 mA 3 s stimulation).
`Nc1ncnc2c1ncn2[C@@H]1O[C@H](COS(=O)(=O)NC(=O)c2ccccc2O)[C@@H](O)[C@H]1O` gave an MIC of 0.39 µM (≈ 0.182 µg/mL) (Mycobacterium tuberculosis; H37Rv, iron-deficient GAS medium; pH 6.6).
The IC50 of `Clc1cc(Br)ccc1-c1ccc(CNCC2CCNCC2)o1` is reported as 100 nM (Trypanosoma brucei brucei; Squib 427).
`N=C(N)c1ccc(OCCCCCOc2ccc(C(=N)N)cc2)cc1` has an IC50 of 41 ± 2.3 nM (Trypanosoma brucei brucei; cell growth; GUTat3.1).
The IC50 of `Cc1ccc([N+](=O)[O-])cc1S(=O)(=O)N(C)/N=C/c1cnc2ccc(Br)cn12` is reported as 2300 nM (ATM; kinase activity, inhibitor; together with: 10 µM ATP).
Under “protection against vertical transmission”, `CCOc1ccc2cc(-c3nn(CC4CCN(C)CC4)c4ncnc(N)c34)ccc2c1` is recorded as 84% (Neospora caninum; pregnant mice; dose not given).
`Nc1ncnc2c1nc(Br)n2[C@@H]1O[C@@H]2COP(=O)(O)O[C@H]2[C@H]1O` — result for “Km or Ki”: 38700 nM (PDE2A; cyclic nucleotide hydrolysis, substrate or inhibitor, isothermal titration calorimetry).
The EC50 of `C[C@]12CC[C@@H]3c4ccc(O)cc4CC[C@H]3[C@@H]1CC[C@H]2O` is reported as 3100 nM (HT-22; cell protection; together with: glutamate 10 mM).

A few entries again:
The EC50 of `C[C@]12CC[C@@H]3c4ccc(O)cc4CC[C@H]3[C@@H]1CC[C@H]2O` is reported as 3100 nM (HT-22; cell protection; together with: glutamate 10 mM).
